Assay results gathered from unrelated publications.
Protocols differ between the studies behind these lines. “And” joins repeats or separate records; there may be more than shown. Values after ≈ are worked out from the molar mass of the structure shown.
Organism: Acinetobacter baumannii

SMILES = c1ccc(CSc2nc3ccc(-c4ccccc4)cc3cc2CNCCC2CCN(C3CCCC3)CC2)cc1; assay = NADH-driven proton pumping, ACMA quenching; test system = inverted membrane vesicles; setting = 32 µg/mL; quantity = inhibition; value = 95%
SMILES = O=C(N[C@H](CO)[C@H](O)c1ccc([N+](=O)[O-])cc1)C(Cl)Cl; assay = broth microdilution; test system = NCTC 13424; scale = relative to: 5% CO2 over ambient air; quantity = MIC fold shift; value = 0.5
SMILES = c1ccc(CSc2nc3ccccc3cc2CNCc2ccc(N3CCCCC3)cc2)cc1; assay = NADH-driven proton pumping, ACMA quenching; test system = inverted membrane vesicles; setting = 32 µg/mL; quantity = inhibition; value = 89%
SMILES = N=C(N)c1ccc(OCc2ccc(Br)cc2COc2ccc(C(=N)N)cc2)cc1; assay = checkerboard; test system = ATCC 17978; setting = unit not given, with: rifampicin; scale = lower = stronger synergy; quantity = FICI; value = ≤ 0.047
SMILES = Cc1c(CN(C)C(=O)/C=C/c2cnc3c(c2)CC(NC(=O)OC(C)(C)C)C(=O)N3)oc2ccccc12 (stereo not shown); assay = broth microdilution; test system = AR-0033; quantity = MIC; value = > 32 µg/mL
SMILES = N=C(N)c1ccc(OCc2cc(Br)cc(COc3ccc(C(=N)N)cc3)c2)cc1; test system = ATCC 17978; setting = concentration not given, with: rifampicin; quantity = MIC in combination; value = 6.25 µg/mL
SMILES = CN(C)c1ccc(O)c2c1C[C@H]1C[C@H]3[C@H](N(C)C)C(O)=C(C(N)=O)C(=O)[C@@]3(O)C(O)=C1C2=O; assay = broth microdilution; test system = NCTC 13424; scale = relative to: 5% CO2 over ambient air; quantity = MIC fold shift; value = 1
SMILES = N=C(N)c1ccc(OCc2ccc(-c3ccccc3)cc2COc2ccc(C(=N)N)cc2)cc1; assay = checkerboard; test system = ATCC 17978; setting = unit not given, with: rifampicin; scale = lower = stronger synergy; quantity = FICI; value = ≤ 0.023
SMILES = CN1CCN(CCNCc2cc3ccccc3nc2SCc2ccccc2)CC1; assay = NADH-driven proton pumping, ACMA quenching; test system = inverted membrane vesicles; setting = 2 µg/mL; quantity = inhibition; value = 0%
SMILES = N=C(N)c1ccc(OCCC(CCOc2ccc(C(=N)N)cc2)c2ccccc2)cc1 (stereo not shown); assay = checkerboard; test system = ATCC 17978; setting = unit not given, with: rifampicin; scale = lower = stronger synergy; quantity = FICI; value = ≤ 0.047
SMILES = C[C@@H](O)[C@H]1C(=O)N2C(C(=O)O)=C(SCCN=CN)C[C@H]12; test system = 0403, female ICR mice, peritonitis, lung; setting = dose not given; quantity = bacterial load; value = 2.52 log CFU and 3.22 log CFU and 2.82 log CFU and 3 log CFU and 3.12 log CFU
SMILES = COc1cc2cc(CNCCC3CCN(C4CCCC4)CC3)c(SCc3ccccc3)nc2c(OC)c1OC; assay = NADH-driven proton pumping, ACMA quenching; test system = inverted membrane vesicles; setting = 2 µg/mL; quantity = inhibition; value = 3%
SMILES = NCCCC[C@H](NC(=O)[C@H](Cc1ccccc1)NC(=O)[C@H](CCC(N)=O)NC(=O)[C@H](Cc1ccccc1)NC(=O)[C@H](CCC(N)=O)NC(=O)[C@@H](N)Cc1ccccc1)C(N)=O; quantity = MBC; value = 2080 µM (≈ 1750 µg/mL)
